Results from different studies.
Lines come from different studies, so protocols differ.
PIK3CD with p85 alpha: Phosphatidylinositol 4,5-bisphosphate 3-kinase catalytic subunit delta isoform, with p85 alpha (PIK3CD, Homo sapiens, UniProt O00329)
PIK3CD: Phosphatidylinositol 4,5-bisphosphate 3-kinase catalytic subunit delta isoform (PIK3CD, Homo sapiens, UniProt O00329)

| Compound | target | assay | conditions | scale | endpoint | result |
| --- | --- | --- | --- | --- | --- | --- |
| C=CC(=O)Nc1cc(Nc2nccc(Nc3cc(Cl)c(F)cc3C(C)(C)O)n2)c(OC)cc1N1CC[C@@H](N(C)C)C1 | PIK3CD with p85 alpha | kinase activity, inhibitor | 1 µM | – | inhibition | 4% |
| Cc1ccc(NC(=O)c2ccc(C)c(C(F)(F)F)c2)cc1C#Cc1nn(C2CCC(O)CC2)c2ncnc(N)c12 (centres unmarked) | PIK3CD with p85 alpha | enzyme activity, inhibitor | 10 µM, p110d/p85a)(h human, together with: ATP 10 µM | – | remaining activity | 74% |
| CN1CC(Oc2cnc(C#N)cc2-c2ccn3nc(NC(=O)C4CC4)cc3c2)C1 | PIK3CD with p85 alpha | inhibitor, KinaseProfiler panel | 1 µM | – | inhibition | -2% |
| COc1cc(F)ccc1-c1ncnc(Nc2cccc(C[S@](C)(=N)=O)c2)n1 | PIK3CD with p85 alpha | kinase activity | 10 µM, together with: ATP 10 µM | – | remaining activity | 100% |
| COc1cc(Cl)c(C(=O)N[C@@H](CN[C@H]2CC[C@@H](N)CC2)Cc2ccc(C#N)cc2)cc1-c1ccc(CN[C@H](C)c2ccc(C)cc2)o1 | PIK3CD with p85 alpha | enzyme activity, KinaseProfiler panel | 1 µM | – | remaining activity | 96% |
| COc1cc(-c2cncc3c2CN(C)Cc2cc(N4CCNCC4)ccc2-3)cc(OC)c1OC | PIK3CD with p85 alpha | kinase activity | 1 µM, p110d/p85a)(h human, together with: ATP 10 µM | reference: DMSO | remaining activity | 101% |
| C=CC(=O)N1CCC(COCC(=O)N2CCN(c3nc(-c4cnc(N)nc4C(F)F)nc(N4CCOC[C@@H]4C)n3)CC2)CC1 | PIK3CD | KINOMEscan | 1 µM | – | remaining binding | 0.75% |
| CS(=O)(=O)Nc1cccc(-c2csc(NC(=O)CSc3nc4nccnc4c(=O)n3CCc3ccccc3)n2)c1 | PIK3CD with p85 alpha | kinase activity, inhibitor | 10 µM, together with: PIK3R1 complex | – | inhibition | 7% |
| Cc1nc(NC(=O)N2CCC[C@H]2C(N)=O)sc1-c1ccnc(C(C)(C)C(F)(F)F)c1 | PIK3CD | KINOMEscan | 10 µM | – | remaining binding | 0.15% |
| O=C(CSc1nc2nccnc2c(=O)n1CCc1ccccc1)Nc1nccs1 | PIK3CD with p85 alpha | kinase activity, inhibitor | 10 µM, together with: PIK3R1 complex | – | inhibition | -3% |
| O=C(NC1CCC1)c1ccc2nc(-c3cccc(NS(=O)(=O)NCCN4CCCCC4)c3)cn2c1 | PIK3CD | enzyme activity | 10 µM | – | remaining activity | 100% |

A few entries again:
| Compound | target | assay | conditions | scale | endpoint | result |
| --- | --- | --- | --- | --- | --- | --- |
| C=CC(=O)Nc1cc(Nc2nccc(Nc3cc(Cl)c(F)cc3C(C)(C)O)n2)c(OC)cc1N1CC[C@@H](N(C)C)C1 | PIK3CD with p85 alpha | kinase activity, inhibitor | 1 µM | – | inhibition | 4% |
